Measured values pooled from the literature.
Parts stem from different laboratories: compare values within a part only.

Sample 1 — method: protein-binding microarray; molecule type: double-stranded DNA, one strand shown; medium: in vitro; tested at: 250 nM; setting: 60-bp whole probe; with: salmon DNA 0.4 mg/ml; reference: random background probes; reading: higher = stronger binding; quantity: log fluorescence; all sequences stand within: GCCTAGCAC … GTCTTGATTCGCTTGACGCTGCTG
Target: Interferon regulatory factor 5, full length, phosphomimetic (IRF5, Homo sapiens, UniProt Q13568-2, residues 1-514, K96S/S451D/S453D/S456D/S462D)
GACGGTATCGGGTTTCGGGACGTGCTA: 4.31 z-score
GGCGGACTGGGGTATCGGGACGTGCTA: -0.233 z-score
TTAGATTTCAGTATCGTTTAGTGCTAG: 5.65 z-score
TTAGGTTTCCTACTGCTTTCGTGCTAG: 1.57 z-score
TGAGGTCTCCTTATCCTTTAGTGCTAG: -0.151 z-score
GACGATATCAGTATCGAGCCGTGCTAG: 2.56 z-score
GATGGTTTCGGTTTCGGGACGTGCTAG: 10.8 z-score
TCACCTCTGCATTCCCTACTGTGCTAG: 0.236 z-score
TGAGGTTCCCTTTTCCTTTAGTGCTAG: 0.302 z-score
CTAGGACTGGACTTTCGGTTAGTGCTA: 9.16 z-score
TGCATTCCCTTTCTCAACCTGTGCTAG: 0.674 z-score
TTAGAACTGGGGGTTCGATTAGTGCTA: 0.453 z-score
TTAGGACTGGGACTGAGTTAGTGCTAG: -0.731 z-score
GACGGTATCAGTCTCGAGACGTGCTAG: 1.15 z-score
CTAGGACTGGGTTTCGGTTAGTGCTAG: 7.95 z-score
GACGATTCCAGTTTGGAGACGTGCTAG: 0.0312 z-score
TTAGGTCTCGGTCTCGGATAGTGCTAG: 0.701 z-score
TTCTGAACCATTTTGGTTTTGTGCTAG: 0.505 z-score
TTAGGGCTCCTACTGCTTTAGTGCTAG: -0.52 z-score
GACGAACTGAGTATCTAGACGTGCTAG: 0.0385 z-score
TCACATTTTCGTTTTGTACTGTGCTAG: 5.08 z-score
GAACCTTCCCCTCTAGGTTCGTGCTAG: 0.255 z-score
TTAGGTATCGACACTAGGTTAGTGCTA: 2.65 z-score

Sample 2 — method: RNA Bind-n-Seq; molecule type: RNA; medium: in vitro; tested at: 365 nM; reference: no-protein control; reading: higher = stronger binding; quantity: RBNS enrichment (R)
Target: RNA binding protein fox-1 homolog 2, RRM domain, GST-SBP tag (RBFOX2, Homo sapiens, UniProt O43251-10, residues 100-194)
Setting: natural RNA segment, single round, ends assumed
All sequences stand within: GGGAGUUCUACAGUCCGACGAUC … UGGAAUUCUCGGGUGCCAA
Construct (chain): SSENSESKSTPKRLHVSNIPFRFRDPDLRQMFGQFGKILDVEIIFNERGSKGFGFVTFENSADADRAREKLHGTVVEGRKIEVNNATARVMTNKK
AUGUCUUCCAUGGAGCCUCAGGUGCUCCCCCUCUCACCUGGCAGCCCCUUCAGCUGCUAGUGAUAUCACUUGUUGGACAUUUUUCCAAUAAAGGUUCUUGGACAAACUGG: 0.266
AGUUGUAAGAUAACAUUUGAAAUGUGAGACUAUAUGGUUUUUAAUAAAAUGUUUGAUGUUUUAUCCCUCUGGGUCUGUGAUCUUAUUGGACCUUAGAAGUACUCUGAGCC: 0.393
AAUUGUGGACUUUUAAAACCUGUUGACUAAACAGUAAUUAAUUUAUAUUUGUGAAAAAUGCCACUGUCCUAGUGAUUUCUGAUGUAAAUAAUGUUGUUUAUAUAGUAUGU: 0.43
AGCCUCAUCCCCUAUACAGUUAGGAGCUCCCCACAUCUCUACCAAAACCCAGCACAUAAGUAUCUGCGUGGUCUAGCCUUUCAUCUCCGUAACAAGCCAGGGGACUCUUG: 0.913
AACAGUAAUGGGGCUAAAGGGGCAGUGAGCUCCAAACAGUCACAGAGUGAGGAGUCUUCUGAGCUCCCUGGCUAAGUGCAGCGUGCUAGCAGACAGGCAGGGGAUGCAAA: 0.246
AUACAAAUGCAAAAUGCCUUAUACUGAAGCAGUUUUACAUGAAGUUUUAAGAUUCUGUAAUAUAGUUCCACUGGGAAUUUUCCAUGCAACUUCGGAAGAUGCAGUUGUAC: 0.381
CCCAGGUUCUAAACUGAAACUGACUAGAGAUGAAUCCAGCGCCUGACAGAAUGUCAUUCUCCUUCAGUUGCUGCCAUUUUAUCUCCUCCUGAAAGCUAAAGGCUCACCAC: 0.437
UGGUCGCCAAGUAGAGCAAGCCCCCUUUCUCUUCCCAAUCACGUGGCUGAGUGUGGAUGACUUUUAUUUUAGGAGAAGGGCGAUUAACACUUUUGACAGUAUUUUGUUUU: 0.544
UCCCCCAGAAACUUAGUGAGUCCUGGACUGGACUGAACAUCCAGAAAGCUUCCCUGCAAUCUUGGGGUUUGGCUUUAGUUUUCUUUUCCUUGAUUUCUCAGUAGGUGCUA: 0.339
CAGCACCUCCAAAGGUCCCUAGGACACUUUGCCUCUCUUCUCCCCCUGCCCCCCACCCUGCUCCCACAUCUGGGGGCCCAUGGGCCAGGAGUGGAUAAGCCUGCAUUAAU: 0.345
UGCUUUUUGGGACCAUCACUGAGAGUCAGGAGUUUUACUGCCUGUAGCAAUGGCCAGAGCCUCUGGCCCCUCACCCACCAUGGACCAGCCCAUUGGCCGAGCUCCUGGGG: 0.281
ACAUAAAAUUGAUUUAUCUUUCUCUCUGUACACAAAGUAUCCAAAUAUUAUACCUUAAGGAUUCCUACCAGGUUUUCUUGAAAAGUGGCUUUUACAUGAGGCAAGAAGGA: 0.302

Sample 3 — method: universal PBM; molecule type: double-stranded DNA, one strand shown; medium: in vitro; tested at: not given; reading: higher = stronger binding; quantity: E-score
Target: Sal-like protein 4, full length isoform B (SALL4, Homo sapiens, UniProt Q9UJQ4-2, residues 1-616)
Setting: 8-mer, flanks averaged, mean of replicates
Construct (chain): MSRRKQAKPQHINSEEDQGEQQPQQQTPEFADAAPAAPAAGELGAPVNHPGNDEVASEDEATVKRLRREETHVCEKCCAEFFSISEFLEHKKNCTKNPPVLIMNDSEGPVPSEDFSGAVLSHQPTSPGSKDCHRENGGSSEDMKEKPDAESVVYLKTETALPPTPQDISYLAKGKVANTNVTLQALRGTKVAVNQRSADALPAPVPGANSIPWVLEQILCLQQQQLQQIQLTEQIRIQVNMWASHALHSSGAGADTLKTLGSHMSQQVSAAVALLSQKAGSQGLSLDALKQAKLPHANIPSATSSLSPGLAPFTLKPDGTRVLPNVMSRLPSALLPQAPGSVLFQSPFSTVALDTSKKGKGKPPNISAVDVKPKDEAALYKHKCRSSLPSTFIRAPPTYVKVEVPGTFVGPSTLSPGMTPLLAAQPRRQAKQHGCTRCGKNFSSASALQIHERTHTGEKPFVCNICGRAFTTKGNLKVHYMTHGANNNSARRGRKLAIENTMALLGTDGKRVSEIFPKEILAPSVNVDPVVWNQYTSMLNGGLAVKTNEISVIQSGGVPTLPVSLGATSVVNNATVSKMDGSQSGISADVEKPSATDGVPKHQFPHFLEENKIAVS
GTAAGAGA: 0.0573
GTCGGCGA: -0.311
GGAAAAGA: 0.0425
CCCGGCGG: -0.419
TACCCAGA: 0.0677
ACCGGAAA: 0.013
CCGCTTGA: -0.244
CGAACACG: -0.0191
AGTGCCGG: -0.227
CTCGGTGA: -0.116
TGTCGGAA: 0.00342
ATGACCAT: 0.138
ACGTTTCC: -0.0524
GGCTACAC: 0.0663
CTCCGAGA: -0.188
CCCTGAGG: -0.266
CTCTGCCC: -0.158
CGGCTAGC: -0.206
CAGTCCAG: -0.303
TAGGGAAA: 0.107
CCCGTGTA: -0.0936
AGGACCAA: -0.14
CACCTAAG: -0.0832
AATTCTGT: 0.152
CGAGGGCA: -0.178

Sample 4 — method: RNA Bind-n-Seq; molecule type: RNA; medium: in vitro; tested at: not given; reference: input RNA pool; reading: higher = stronger binding; quantity: bound/input enrichment
Target: RING finger protein unkempt homolog, zinc fingers 1-6, GST-SBP tag (UNK, Homo sapiens, UniProt Q9C0B0, residues 30-357)
UniProt Q9C0B0, sequence (30-357, looked up): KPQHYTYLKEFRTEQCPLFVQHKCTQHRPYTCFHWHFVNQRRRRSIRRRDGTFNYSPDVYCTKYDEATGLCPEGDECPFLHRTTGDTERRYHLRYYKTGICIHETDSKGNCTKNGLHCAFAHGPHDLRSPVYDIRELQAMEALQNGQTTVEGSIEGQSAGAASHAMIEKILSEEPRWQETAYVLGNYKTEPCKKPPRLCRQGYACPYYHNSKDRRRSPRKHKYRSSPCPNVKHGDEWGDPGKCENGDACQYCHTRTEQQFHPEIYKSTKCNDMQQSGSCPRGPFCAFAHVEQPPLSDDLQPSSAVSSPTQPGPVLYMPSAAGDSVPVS
Setting: RNA with constant flanks, human-mouse chimeric sites, ends assumed
All sequences stand within: GGGAGUUCUACAGUCCGACGAUC … CAACAGAGGAUUGAGCAUCA
CGGAGCCCUCCUCUCCCACAGGCCCAAGAUGUGACCCACCAGUGCCUUUUGUCUUCCUGUCAGCUCUGUCAAUCACGCCUGUCCUCUCACGCCCACACCAAGUGCCCAAAGUGGGGAGGG: 0.435 ratio
UGUAGUUUCUUGAUUUAUCAUUUUUCUCUUUUCUUUCUUUCCUUUAGGAAAAGCCUAAAGAUUAGGUUGUAAGAAAAGAAAAUAGAAUGUUUCGAAGGAAGACCUGUCAGGUAUUUCGUC: 0.235 ratio
UUAAACACCAAGCUGAUGGACUCUGAUCUUGAUCUCUUCUCAGGCACGUGUGCCUUCUCUUAGUCCCUGUUUUCGGGAUGUUAUGAAUCUCAGUACUGUGGUUUGAAAGCACCAGCUUUG: 0.191 ratio
CUGGCACUCUAUCAGAUAGAUUACUUUUUUAAUGUAGAUGUAAUUUUAAAAAUGAAUGGCUACUUUACACGUUUAACUAGGGUUUUACUAUAUAUGUGUACAUAUGUAUAUGUAUUUAUA: 22.1 ratio
AAUUUCCUGUCAUACUUUUUAGACAUUCACAUCAGACGCCUUACUACCCUGGCCACAUUCUAGUUUUGUGUUAUUUCUCAGCUAUGGAUAUGAUCAAAUGAGAACACUGCUUAACUAAUG: 0.638 ratio
CGCUGGCGUUGAACUGUGGACUCUGAUGGCCUCCAUCUCUCAGGCACGUGUGCCUUCUCUUAGUUAUUGUUUUCGGGAUGUUAUGAAUCUCAGUACUGUGGUUUGAAAGCACCAGCUUUG: 3.45 ratio
GCUCCUCCCCGCUCUGCAGCCUGGGGACACUGGGCUGCAUUUUUUUUCCAGCUUUCUUUUAAAACUCUCAGUGUAACUUCUUUUUCUGACAUUUCAUUUUUUUUAAAUAGUGUAUUUUUU: 6.9 ratio
CUUCGGAAUGCACUACAACCUUUUCUGACAGUGCUUUCCCUCCCAUAGAUCCACGUUCAAGCUCAAAGAGCAAAGGCUUUGCACGGAGCUCAAACAUCUGAUGAAGAAAGAUUUCUGAGA: 0.254 ratio
AGAGAUAAGACAUCCAGAAAUAUGAGAGGCUCCCGGAUGAAUGGGUUGCCUAGCCCCACUCACAGCGCCCACUGUAGCUUCUACCGAACCAGAACCUUGCAGGCAUUGAGUAAUGAGAAG: 0.251 ratio
UCUUUAAAAAAAAAAUUACCUUUUCUGCAUAUUAUAGCCCUCCCAUAGAUCCACGUUCAAGCUCAAAGGCCAAAACUUUUGCACGGAGCUCAAACAUCUGAUGAAGAAAGAUUUCUGAGA: 4.71 ratio
GCCACCAGAUCCCAGAAACAUGACUCUUGCUGCCUACAAAGAGAAGAUGAAGGAGCUCCCGCUGGUGUCCUUGUUCUGCUCCUGCUUCUUGUCUGAUCCCCUGAAUAAGUCGUCCUACAA: 0.28 ratio

Excerpt of the above (sample 4):
CGGAGCCCUCCUCUCCCACAGGCCCAAGAUGUGACCCACCAGUGCCUUUUGUCUUCCUGUCAGCUCUGUCAAUCACGCCUGUCCUCUCACGCCCACACCAAGUGCCCAAAGUGGGGAGGG: 0.435 ratio
UGUAGUUUCUUGAUUUAUCAUUUUUCUCUUUUCUUUCUUUCCUUUAGGAAAAGCCUAAAGAUUAGGUUGUAAGAAAAGAAAAUAGAAUGUUUCGAAGGAAGACCUGUCAGGUAUUUCGUC: 0.235 ratio
UUAAACACCAAGCUGAUGGACUCUGAUCUUGAUCUCUUCUCAGGCACGUGUGCCUUCUCUUAGUCCCUGUUUUCGGGAUGUUAUGAAUCUCAGUACUGUGGUUUGAAAGCACCAGCUUUG: 0.191 ratio
CUGGCACUCUAUCAGAUAGAUUACUUUUUUAAUGUAGAUGUAAUUUUAAAAAUGAAUGGCUACUUUACACGUUUAACUAGGGUUUUACUAUAUAUGUGUACAUAUGUAUAUGUAUUUAUA: 22.1 ratio
AAUUUCCUGUCAUACUUUUUAGACAUUCACAUCAGACGCCUUACUACCCUGGCCACAUUCUAGUUUUGUGUUAUUUCUCAGCUAUGGAUAUGAUCAAAUGAGAACACUGCUUAACUAAUG: 0.638 ratio
CGCUGGCGUUGAACUGUGGACUCUGAUGGCCUCCAUCUCUCAGGCACGUGUGCCUUCUCUUAGUUAUUGUUUUCGGGAUGUUAUGAAUCUCAGUACUGUGGUUUGAAAGCACCAGCUUUG: 3.45 ratio
GCUCCUCCCCGCUCUGCAGCCUGGGGACACUGGGCUGCAUUUUUUUUCCAGCUUUCUUUUAAAACUCUCAGUGUAACUUCUUUUUCUGACAUUUCAUUUUUUUUAAAUAGUGUAUUUUUU: 6.9 ratio
CUUCGGAAUGCACUACAACCUUUUCUGACAGUGCUUUCCCUCCCAUAGAUCCACGUUCAAGCUCAAAGAGCAAAGGCUUUGCACGGAGCUCAAACAUCUGAUGAAGAAAGAUUUCUGAGA: 0.254 ratio
AGAGAUAAGACAUCCAGAAAUAUGAGAGGCUCCCGGAUGAAUGGGUUGCCUAGCCCCACUCACAGCGCCCACUGUAGCUUCUACCGAACCAGAACCUUGCAGGCAUUGAGUAAUGAGAAG: 0.251 ratio
UCUUUAAAAAAAAAAUUACCUUUUCUGCAUAUUAUAGCCCUCCCAUAGAUCCACGUUCAAGCUCAAAGGCCAAAACUUUUGCACGGAGCUCAAACAUCUGAUGAAGAAAGAUUUCUGAGA: 4.71 ratio
GCCACCAGAUCCCAGAAACAUGACUCUUGCUGCCUACAAAGAGAAGAUGAAGGAGCUCCCGCUGGUGUCCUUGUUCUGCUCCUGCUUCUUGUCUGAUCCCCUGAAUAAGUCGUCCUACAA: 0.28 ratio
